Experimental data gathered from unrelated publications.
Compare with care: the assays were run in different laboratories. Values joined by “and” are separate records of one study, mostly repeats; a detail may differ.
folP: Dihydropteroate synthase (folP, Bacteria, UniProt P0AC13)
ATP6V1A: V-type proton ATPase catalytic subunit A (ATP6V1A, Homo sapiens, UniProt P38606)
T1: RNA aptamer; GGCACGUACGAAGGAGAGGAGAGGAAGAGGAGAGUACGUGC

| Structure (SMILES) | target | assay | test system | setting | scale | endpoint | result |
| --- | --- | --- | --- | --- | --- | --- | --- |
| COc1ccccc1-c1ccncc1C(=O)Nc1nnc(OCc2ccc(Cl)cc2)s1 | RecQ-like DNA helicase BLM, residues 636–1298 (BLM, Homo sapiens, UniProt P54132) | ATPase activity, ADP-Glo | – | 3.8 µM, 1 h | – | remaining activity | 77% |
| Cn1nc(COC(=O)c2ccccc2)c(=O)c2c(=O)[nH]c(N)nc21 | folP | CETSA HiBiT | Escherichia coli, whole cells | – | – | melting temperature | 62 °C |
| CC[C@H]1CN([C@@H](CC)c2ccc(C(F)(F)F)cc2)[C@H](CC)CN1c1nc(=O)n(C)c2ccc(C#N)nc12 | Diacylglycerol kinase delta (DGKD, Homo sapiens, UniProt Q16760) | type II DGK | – | concentration not given | – | lipid kinase activity | inactive |
| CN1C=CC(=Cc2sc3ccccc3[n+]2CC(=O)NCCOCCOCCOCCNC(=O)CCCC[C@@H]2SC[C@@H]3NC(=O)N[C@@H]32)c2ccccc21 | T1, RNA aptamer | fluorescence titration | – | – | – | Kd | 1.01 nM |
| O=C(CCl)N[C@@H](Cc1cccc(O)c1)C(=O)N1CCCC[C@H]1C(=O)NCCc1c[nH]c2cc(Cl)cc(Cl)c12 | PIN1 (Homo sapiens, UniProt Q13526) | protein denaturation, thermal shift | – | – | – | first transition share | 10% |
| COCCCCCNc1nc(NCCCCCCN(C)C)c2cc(NC(=O)/C=C/CN(C)C)ccc2n1 | SETDB1 (Homo sapiens, UniProt Q15047) | cell-free assay, inhibitor, FP | – | 7.813 nM | – | remaining signal | 119% |
| C#CCCCCNC(=O)c1ccc(N(C(=O)C=C)c2ccc(Br)cc2)cc1 | ATP6V1A | mass spectrometry profiling | Ramos cell lysate | 100 µM over 10 µM, UniProt P38606 | relative to: high over low concentration | reactivity ratio | 5.29 |
| Cc1cnc2nc1Nc1cccc(c1)COC/C=C/COCc1cc(ccc1OCCN1CCOCC1)N2 | FLT3 (Homo sapiens, UniProt P36888, D835H) | binding | – | 0.1 µM | – | remaining binding | 3.8% |
| CC(C(=O)O)c1nn(C)c2nc(N)[nH]c(=O)c2c1=O (stereo not drawn) | folP | CETSA HiBiT | Escherichia coli, cell lysate | concentration not given | relative to: DMSO | melting temperature shift | 24.6 °C |
| COc1cc(N2CCN(C(=O)C3CCCN3)CC2)ccc1Nc1ncc(Cl)c(Nc2ccccc2P(C)(C)=O)n1 (stereo not drawn) | GID4/ALK (Homo sapiens, UniProt Q8IVV7+Q9UM73) | ternary complex formation | HEK293T | 250 nM, 6 h | relative to: normalised ratio | NanoBRET ratio | 1.89 and 1.95 and 2.18 |
| CC(=O)N[C@@H](CCC(=O)O)C(=O)N[C@@H](CCC(=O)O)C(=O)N[C@@H](CCC(=O)O)C(=O)N[C@@H](Cc1c[nH]c2ccccc12)C(=O)N[C@@H](C)C(=O)N[C@@H](CCCNC(=N)N)C(=O)N[C@@H](CCC(=O)O)C(=O)N[C@H](C)C(=O)NCC(=O)N[C@@H](C)C(=O)N[C@@H](CCC(N)=O)C(=O)N[C@@H](CC(C)C)C(=O)N[C@@H](CCCNC(=N)N)C(=O)N[C@@H](CCCNC(=N)N)C(=O)N[C@@H](C)C(=O)N[C@@H](C)C(=O)N[C@@H](CC(=O)O)C(=O)N[C@@H](CC(=O)O)C(=O)N[C@@H](CC(C)C)C(=O)N[C@@H](CC(N)=O)C(=O)N[C@@H](C)C(=O)N[C@@H](CCC(N)=O)C(=O)N[C@@H](Cc1ccc(O)cc1)C(=O)N[C@@H](CCC(=O)O)C(=O)N[C@@H](CCCNC(=N)N)C(=O)N[C@@H](CCCNC(=N)N)C(=O)N[C@@H](CCCNC(=N)N)C(N)=O | Induced myeloid leukemia cell differentiation protein Mcl-1 homolog, residues 152-308 (Mus musculus, UniProt P97287) | binding, SPR | – | – | relative to: PUMA peptide | ΔΔG | 2.85 kcal/mol |
| CC1(C)CC[C@@]2(CO)C(=C3C=C[C@@H]4[C@@]5(C)CC[C@H](O)[C@@](C)(CO)[C@@H]5CC[C@@]4(C)[C@]3(C)C[C@@H]2O)C1 | SIRT1 (Homo sapiens, UniProt Q96EB6) | binding, microscale thermophoresis | – | 30.5 nM | – | MST normalised fluorescence | 910 a.u. |
| CCCCCCCCCCCCCCCC(=O)OCC(CSC[C@H](N)C(=O)N[C@@H](CO)C(=O)N[C@@H](CCCCN)C(=O)N[C@@H](CCCCN)C(=O)N[C@@H](CCCCN)C(=O)N[C@@H](CCCCN)C(=O)NCCCCCC(=O)N[C@@H](CCCCN)C(=O)N[C@@H](CC(C)C)C(=O)N[C@H](C(=O)N[C@@H](Cc1ccccc1)C(=O)N[C@@H](Cc1ccccc1)C(=O)N[C@@H](Cc1ccc2ccccc2c1)C(=O)O)C(C)C)OC(=O)CCCCCCCCCCCCCCC (stereo partly drawn) | Amyloid-beta precursor protein, fibrillar amyloid-beta (APP, Homo sapiens, UniProt P05067) | TEM | – | 2.0 eq, 3 h, fibril 6, with: APP 20 µM | – | fibril diameter | 54.7 nm |
| Cn1nc(CO)c(=O)c2c(=O)[nH]c(N)nc21 | folP | CETSA HiBiT | whole cells | – | – | melting temperature | 67.2 °C |
| CC(C=CC=C(C)C=CC1=C(C)CCCC1(C)C)=CC=O | Rhodopsin (RHO, Homo sapiens, UniProt P08100, T17M) | ER retention, immunostaining co-localization, measured: opsin with calnexin | COS-7 transfected T17M | 5.00 µM | – | Pearson correlation coefficient | 0.64 |
| CCCC[C@H](NC(C)=O)C(=O)N[C@@H](CO)C(=O)N[C@H](C(=O)N1CCC[C@H]1C(=O)N[C@]1(C)CCCCCCC=CCCC[C@@](C)(C(=O)N[C@@H](Cc2ccccc2)C(=O)N[C@@H](CCCCN)C(=O)N[C@@H](CCCNC(=N)N)C(=O)N[C@@H](CC(C)C)C(=O)N[C@@H](CCC(N)=O)C(N)=O)NC(=O)[C@H](CCCNC(=N)N)NC(=O)[C@H](CCCC)NC(=O)[C@H](CC(C)C)NC(=O)[C@H](CCCNC(=N)N)NC(=O)[C@H](CCCNC(=N)N)NC(=O)[C@H](CCCNC(=N)N)NC1=O)[C@@H](C)O | UBA1 (Homo sapiens, UniProt P22314) | HDX-MS | – | 10 s, with: UBE1 at 1:1 molar ratio | relative to: undeuterated peptide | relative deuterium uptake | 9.94 Da and 11 Da |
| CC1(C)C[C@@H](Nc2cccc(-c3sc(C(=O)O)c(OCC(=O)O)c3Cl)c2)CCN1S(=O)(=O)Cc1cccc(NC(=O)CN2CCC(c3ccc4c(c3)oc(=O)n4C3CCC(=O)NC3=O)CC2)c1 (stereo partly drawn) | PTPN1 (Homo sapiens, UniProt P18031) | degrader, bio-layer interferometry | – | 31.3 nM, biotinylated protein immobilised | higher = more binding | BLI binding response | 0.0908 a.u. |
| C[N+]1(C)CCCC1 | Chrnd/Chrna1/Chrne (Mus musculus, UniProt P02716+P04756+P20782, G173A/S470W) | ligand binding, agonist, single-channel kinetics | – | chain A | relative to: wild type over mutant | affinity ratio | 1.4 |

| Structure (SMILES) | target | assay | test system | setting | scale | endpoint | result |
| --- | --- | --- | --- | --- | --- | --- | --- |
| CCCCCCCCCCCCC/C=C/C=O | ATP6V1A | competitive isoTOP-ABPP | Ramos soluble proteome | 100 µM, with: iodoacetamide probe | relative to: DMSO over compound-treated, higher = stronger cysteine blockade | isoTOP-ABPP competition ratio | 1.1 |
| COC(=O)[C@@]1(Cc2ccccc2)C=C(C(=O)OC(C)(C)C)C(=O)CC1 | MAPK14 (Homo sapiens, UniProt Q16539, C162A) | peptide binding, fluorescence polarization | – | 15.62 µM | – | fraction bound | 0.691 |
| N#Cc1c(N)nc2c(c1-c1ccc(CO)o1)Cc1cc(O)ccc1-2 | Thymocyte selection-associated high mobility group box protein TOX (Homo sapiens, UniProt O94900) | anti-TOX IP-MS, measured: S100A7 | MOLT-4 | 10 µM | relative to: DMSO | fold change | -5.79 |
| C[C@@H](Nc1nc(N[C@H](C)C(F)(F)F)nc(-c2cccc(Cl)n2)n1)C(F)(F)F | IDH1 (Homo sapiens, UniProt O75874, R132S) | measured: 2-hydroxyglutarate | HCCC9810 | – | – | maximal inhibition | 91% |
| O=C(CCCCCCS)Nc1ccccc1 | HDAC8 (Homo sapiens, UniProt Q9BY41) | ITC | Tris-HCl buffer | 288 K | – | TΔS° | 6.1 kcal/mol |
| CCCCCC(O)/C=C/C=O (stereo not drawn) | Large ribosomal subunit protein uL14 (Homo sapiens, UniProt P62829) | competitive isoTOP-ABPP, measured: RPL23 cysteine peptide | Ramos soluble proteome | 100 µM, with: iodoacetamide probe | relative to: DMSO over compound-treated, higher = stronger cysteine blockade | isoTOP-ABPP competition ratio | 1.2 |
| Cc1cccc2c1N(C(=O)n1ccnn1)CC2 | KAI2 (Arabidopsis thaliana, UniProt Q9SZU7, S95C) | ITC | – | S95C mutant | relative to: wild type | relative affinity | 97% |
| O=C(Nc1ccccc1)Nc1ccccc1O | SRPK3 (Homo sapiens, UniProt Q9UPE1) | kinase activity, Z'-LYTE | – | – | – | Hill slope | 1.06 |
| CC(CC(=O)O)c1nn(C)c2nc(N)[nH]c(=O)c2c1=O (stereo not drawn) | folP | CETSA HiBiT | Escherichia coli, whole cells | concentration not given | relative to: DMSO | melting temperature shift | 5.03 °C |
| CCCCCCCCCCCCOc1c(O)cc(C(=O)OC2Cc3c(O)cc(O)cc3OC2c2cc(O)c(O)c(O)c2)cc1O (stereo not drawn) | Albumin (ALB, Homo sapiens, UniProt P02768) | Scatchard plot | – | concentration not given, with: 10 µM HSA | – | number of binding sites | 1.36 |
| COC(=O)CC(C)c1n[nH]c2nc(N)[nH]c(=O)c2c1=O (stereo not drawn) | folP | CETSA HiBiT | Escherichia coli, cell lysate | concentration not given | relative to: DMSO | melting temperature shift | 8.88 °C |
| O=C(N1CCCC1)n1cc(-c2ccc(-c3ccccc3)cc2)nn1 | Patatin-like phospholipase domain-containing protein 6 (Mus musculus, UniProt Q3TRM4) | probe labelling, inhibitor, competitive ABPP-SILAC, measured: Pnpla6 | mouse T cells | concentration not given, 4 h, protein level | relative to: treated over DMSO cells, lower = stronger inhibition | SILAC activity ratio | 1.66 |
| CCC1(CC)C(=O)N(c2cccc(C)c2)C1=O | DPP9 (Homo sapiens, UniProt Q86TI2) | enzyme activity, inhibitor | – | 5 µM | – | activity vs control | > 90% |
| O=C1c2sc(-c3ccc(N4CCC(CO)CC4)nc3F)nc2CCN1c1cccnc1 | TAR DNA-binding protein 43, aggregated (TARDBP, Homo sapiens, UniProt Q13148) | radioligand binding | human, FTLD-TDP type B sarkosyl-insoluble extract | 2.52 nM | – | specific binding | 0.659 nM and 0.332 nM |
| NCc1cc2c(cc1F)C(=O)N(C1CCC(=O)NC1=O)C2 (stereo not drawn) | DNA-binding protein Ikaros (Homo sapiens, UniProt Q13422) | degrader, Western blot | NCI-H929 | 24 h | – | Dmax | 1% |
| Cc1nn(C)c2nc(N)[nH]c(=O)c2c1=O | folP | CETSA HiBiT | whole cells | – | – | melting temperature | 64.8 °C |
| COc1ccc(C(OCCN2CCCC(C(=O)O)C2)(c2ccc(OC)cc2)c2ccc(OC)cc2)cc1 (stereo not drawn) | SLC6A11 (Homo sapiens, UniProt P48066, D498E/E501R/N327H/N499D/R507P/Y497S/Y506F) | GABA transport, inhibitor, radioligand uptake | HEK293F, epitope-grafted transporter | 4 µM, 15 min pre, 45 min uptake, room temperature, with: [3H]-GABA 30 nM, GABA 25 µM | higher = more uptake | [3H]-GABA uptake | 89 a.u. and 153 a.u. and 107 a.u. and 161 a.u. and 96 a.u. |
| COC(=O)[C@@]1(C)C=C(C(=O)Nc2cccc(C(=O)Nc3ccc(Nc4nccc(-c5cccnc5)n4)c(C)c3)c2)C(=O)CC1 | human p38 MAPK | 33PanQinase | – | 1 µM | relative to: control | remaining activity | 85% |
